Published values collected from several papers.
A part holds a random share of what one study measured.

Set 1
Target: Prothrombin, mature alpha-thrombin (F2, Homo sapiens, UniProt P00734)
Technique: aptamer microarray, sandwich
Form: DNA with 2'F-ANA
Matrix: in vitro
Concentration: 200 nM
Setting: whole 15-mer aptamer, many near background
Added: Cy3 exosite-II aptamer, 400 nM
Direction: higher = stronger binding
Sequence: GGTTGGTGTGGTTGG
Modification | mean fluorescence intensity
2'F-ANA at 2 4 8 10 11 | 83.1 a.u.
2'F-ANA at 1 3 10 13 14 | 58.4 a.u.
2'F-ANA at 3 7 9 12 13 15 | 1200 a.u.
2'F-ANA at 2 6 8 10 12 13 14 | 90 a.u.
2'F-ANA at 4 5 6 7 11 12 14 15 | 73.2 a.u.
2'F-ANA at 2 3 4 6 10 11 12 13 14 | 145 a.u.
2'F-ANA at 1 4 5 6 8 9 12 14 | 47 a.u.
2'F-ANA at 2 10 13 15 | 115 a.u.
2'F-ANA at 2 4 5 8 11 12 13 14 15 | 48 a.u.
2'F-ANA at 1 2 4 5 6 7 8 9 15 | 62.9 a.u.
2'F-ANA at 1 4 5 7 8 13 14 15 | 48.6 a.u.
2'F-ANA at 1 3 4 5 7 9 11 | 52.8 a.u.
2'F-ANA at 3 5 6 10 12 13 14 15 | 48.5 a.u.
2'F-ANA at 1 3 4 5 7 9 12 13 14 | 44.2 a.u.
2'F-ANA at 2 3 5 6 8 11 12 13 14 | 53.6 a.u.
2'F-ANA at 2 3 4 6 7 8 9 10 15 | 210 a.u.
2'F-ANA at 2 4 8 11 14 | 115 a.u.
2'F-ANA at 1 2 5 7 8 9 12 14 | 47.6 a.u.
2'F-ANA at 1 2 5 6 8 10 14 | 51.5 a.u.
2'F-ANA at 1 4 5 7 8 9 11 13 | 47.7 a.u.

Set 2
Target: Histone acetyltransferase KAT6A, winged helix 1, GST fusion (KAT6A, Homo sapiens, UniProt Q92794, residues 1-85)
Technique: protein binding microarray
Form: double-stranded DNA, one strand shown
Matrix: in vitro
Concentration: not given
Setting: 8-mer, flanks averaged, mean of 2 arrays, mostly near background
Reference: not given
Direction: higher = stronger binding
Construct (chain): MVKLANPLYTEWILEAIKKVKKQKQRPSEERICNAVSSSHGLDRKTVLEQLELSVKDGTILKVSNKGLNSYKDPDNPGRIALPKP
Sequence | E-score
CTGCAGTA | -0.173
AGTTACGA | -0.151
CGCGGTAA | 0.358
CGCGGTTA | 0.311
ATTCTAAC | -0.217
GGCAACTA | -0.0484
ATCTACGA | -0.221
GACGTCGA | -0.0403
GGTACACC | 0.223
AACAGGAT | -0.19
ATGCACGC | 0.0821
GGTATTAC | 0.0816
TCGTCAAA | -0.148
TGGTAAAA | -0.174
GTCCACCA | -0.157
TCTCATCA | -0.233
AAGTTCCG | 0.0933
ACGCCTGG | 0.0289
ATTCCGGA | -0.0165
GATTTCTA | -0.0134
CCTGCTCC | -0.00699

Set 3
Target: RNA binding protein fox-1 homolog 2, RRM domain, GST-SBP tag (RBFOX2, Homo sapiens, UniProt O43251-10, residues 100-194)
Technique: RNA Bind-n-Seq
Form: RNA
Matrix: in vitro
Concentration: 365 nM
Setting: natural RNA segment, single round, ends assumed
Reference: no-protein control
Direction: higher = stronger binding
Shared flanks, not repeated: GGGAGUUCUACAGUCCGACGAUC … UGGAAUUCUCGGGUGCCAA
Target sequence (chain): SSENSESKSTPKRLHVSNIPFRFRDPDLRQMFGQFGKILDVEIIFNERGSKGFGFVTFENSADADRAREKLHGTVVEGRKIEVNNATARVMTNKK
Sequence | RBNS enrichment (R)
CCCACUCUGUAAGUGUUUUGGAGUCUGACUAUUGCAGACACCCUCUGGCUGGGCUGCUCAGGGUGACAUCAUAGCACCUCUGGGAAUGCUGCCGAAGAACCCCAUGGUCC | 0.277
CAUCACUAGACUCAGCAACCCUUCUCACCUUAACUGCCACCUUCCCUACACUCUCAGUUUACAGAGGCCACUGGGCCUCUGGCUGCAGAAUACAAAGUCCCGGGCUGUUA | 0.599
UGCCUCGGCUGCGACGUGUCCAGGCGUGGAGAGUUUUGUGUUUCUCCUGUUCAGUAUCCGAGUCUCGUGCAGUGCUGCGUAGGUUAGCCCGCAUCGUGCAGACAACCUCA | 0.961
ACCCACAGAUAACACAUGUUGUUUCUACUUGUAAAUGUAAAGUCUUUAAAAUAAACUAUUACAGAUACUUACGUUGUGGUGUUUCUUUCCUCAUGGACCAUGAUGAAAAU | 0.303
GCAUAAACACUGUGCAGUUUUCCUGCUUGCCAGCCUGUGUGCCAUCUGUUCUCACAGCCUCUGAGAUGUCUCAGGUGAGAGCCAUGGGGUGGAACCAUAAAGUCCCCAUC | 0.271
GCUGGGACAGAGGCUUGAGAGAACUAACGGCUCGGUGCCUUCUCCCUGGUCUCAGACCAUCGUCUCUGCACUGCGAAGGCAUUUGGUAGCCUCGCCACUGAGAUACUAAC | 0.337
AGUGUUUGCUUCCCGUGGAGCCAAGCGCCCAAGACUCUCCGUAUCCUUCACCCUGACAGUUUAACUUCAGCGUUUCUCUGUGCAGUUGCGGUCACCAUGGGUGAGCACUG | 0.288
GAUAUAAAAUAGGCUUAGAGAGGAAAAGCUGCCUCUGGUCAAGUAGAUCAUGGCAGCAUGAAUUCCAACUCACUUUUUUACAACUCCAACUUCUAUGUUUAUCUUUGUUA | 0.551
AGAAAACUGGUUGUAGUUUACUAUUUUACCUACCUAAAAACAGAUGUGAUGGCUCUUUAAGAAUUGGGUUUGACCAAAGUUCUCUUUGUUUUCAGGGAAAACUAUAUAAA | 0.355
GACUAGAGAGAAGCCUCCUGCUCCCCUCGCCUGCACACCCCCUUUCAGAGGGCCACUGGGUUAGGACCUGAGGACCUCACUUGGCCCUGCAAGGCCCGCUUUUCAGGGAC | 0.572
AGUAAACUACAGCUUUGAGUUGGAAAGAAGUCACGGGUUGUAAAACCAUUUGGAUUUUUUUAAAACAAAAGUAUUAAUAAUCUGGAAGACAGUGUUGCCCAGGUCAGGAG | 0.362
ACACACACAAGUAAGAGACUCAGCCUGCAGUUAAUUAGCAUUCUGGCAGUUUUGACAUCAGCCAGCUGCCCUAAAUAACCCUUCAACGUUUCUUCACUUUUGCAAGGUUC | 0.614

Set 4
Target: Phosphate system positive regulatory protein PHO4, full length, GST-tagged (PHO4, Saccharomyces cerevisiae, UniProt P07270, residues 1-312)
Technique: competition protein-binding microarray
Form: double-stranded DNA, one strand shown
Matrix: in vitro
Concentration: 2 µM
Setting: whole 60-bp probe, lowest competitor level
Added: Cbf1 competitor, 0.05 µM
Direction: higher = stronger binding
Shared flanks, not repeated: … GTCTTGATTCGCTTGACGCTGCTG
Target sequence (chain): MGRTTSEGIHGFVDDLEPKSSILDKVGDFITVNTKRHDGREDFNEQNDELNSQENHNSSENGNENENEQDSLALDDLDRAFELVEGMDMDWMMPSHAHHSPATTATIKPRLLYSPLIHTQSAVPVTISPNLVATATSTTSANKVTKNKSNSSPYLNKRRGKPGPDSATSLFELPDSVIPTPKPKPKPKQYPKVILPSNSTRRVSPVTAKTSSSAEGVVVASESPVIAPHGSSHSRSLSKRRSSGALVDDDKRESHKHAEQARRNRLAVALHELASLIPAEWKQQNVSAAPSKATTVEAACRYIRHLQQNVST
Sequence | fluorescence intensity
CGTATACATAGGCATTGCGTGTTGAAAAATTGTCGG | 7260 a.u.
CTAACGAAGGTTTTTCACGTGCTCTACAAGCCAAGT | 13900 a.u.
GTCCCATTCAATGAGCACATGCCTTGTGTAGTTTTG | 13600 a.u.
GGCCCGGTGGGTCCACGCGTGTGTTGCGGTTAGAGC | 9800 a.u.
CGGGGTTAAGTTTGGGATGTGGGTGGCTTGCAGCAG | 4860 a.u.
GAACTGCCGCCGGTGGACGTGCTTTGCGTCCGAGTC | 4650 a.u.
TCTCTCGCGTTGCTTCTTGTGACGGCAGTTGTATAT | 4570 a.u.
CTTCTGTAAATTTGATCTGTGGGTGGACGCGCCCCG | 4670 a.u.
TCGGTAGGGCCATCTCGCGTGCCAGAACAGACAAGA | 7070 a.u.
AAACACTTCCACCTACACGTGAGAGCCAAAGCCATA | 14700 a.u.
TAACACATAACCCATCACGTGTTGGTCTTGATAGTC | 16600 a.u.
CAAAACGTTAGTTTAGTCGTGCTAAACCGCTATTTT | 6430 a.u.
AGTAGCGATGACTGTCATGAAGATGAAAGGGTGCGG | 3780 a.u.
CTCTTGGTTTACTGTCACATGGAGAACCTTTACTGG | 8810 a.u.
TCTATTCCGCGGTAACCTATGGTTACGGCCAGATTT | 3030 a.u.
CAATTCTTCGGGCGTCACATGACAAATATATAGGGA | 6600 a.u.
TACCCAGCGCGTCCGCACGTGCTTTTTATGGAAACT | 18400 a.u.
GCGTCCATGGGAGTGCTCCTGCAACGTACTTCATCT | 4320 a.u.
CTAACGAAGGTTTGAGCGGTGGGTGACAAGCCAAGT | 3490 a.u.
GGACCATATAGAGCATAGGTGTGGCCCGCGATCCAG | 5170 a.u.
CATACCCAACCTTGCCGAGTGGGTGAAGATATTTGT | 4680 a.u.
AGACGAGGCAAAAGACACATGGTCGGCCCGTAACCA | 9320 a.u.
TAAAAATAACACCATCACGTATTTTAACGAATCAGA | 5170 a.u.
CTTCTGTAAATTTGCGTAGTGGGTGGACGCGCCCCG | 4630 a.u.
GTCTTGTCTCATTGTCACCCGACTTTCCCCACTTCA | 4720 a.u.

Excerpt of the above (set 2):
Sequence | E-score
AACAGGAT | -0.19
ATGCACGC | 0.0821
GGTATTAC | 0.0816
TCGTCAAA | -0.148
TGGTAAAA | -0.174
GTCCACCA | -0.157
TCTCATCA | -0.233
